Measurements from different studies.
Protocols differ between the studies behind these lines. Values joined by “and” are separate records of one study, mostly repeats; a detail may differ. ± marks the error that the study gave.
CASP7: Caspase-7 (CASP7, Homo sapiens, UniProt P55210)
Chain of UniProt Q93009 (whole entry, looked up): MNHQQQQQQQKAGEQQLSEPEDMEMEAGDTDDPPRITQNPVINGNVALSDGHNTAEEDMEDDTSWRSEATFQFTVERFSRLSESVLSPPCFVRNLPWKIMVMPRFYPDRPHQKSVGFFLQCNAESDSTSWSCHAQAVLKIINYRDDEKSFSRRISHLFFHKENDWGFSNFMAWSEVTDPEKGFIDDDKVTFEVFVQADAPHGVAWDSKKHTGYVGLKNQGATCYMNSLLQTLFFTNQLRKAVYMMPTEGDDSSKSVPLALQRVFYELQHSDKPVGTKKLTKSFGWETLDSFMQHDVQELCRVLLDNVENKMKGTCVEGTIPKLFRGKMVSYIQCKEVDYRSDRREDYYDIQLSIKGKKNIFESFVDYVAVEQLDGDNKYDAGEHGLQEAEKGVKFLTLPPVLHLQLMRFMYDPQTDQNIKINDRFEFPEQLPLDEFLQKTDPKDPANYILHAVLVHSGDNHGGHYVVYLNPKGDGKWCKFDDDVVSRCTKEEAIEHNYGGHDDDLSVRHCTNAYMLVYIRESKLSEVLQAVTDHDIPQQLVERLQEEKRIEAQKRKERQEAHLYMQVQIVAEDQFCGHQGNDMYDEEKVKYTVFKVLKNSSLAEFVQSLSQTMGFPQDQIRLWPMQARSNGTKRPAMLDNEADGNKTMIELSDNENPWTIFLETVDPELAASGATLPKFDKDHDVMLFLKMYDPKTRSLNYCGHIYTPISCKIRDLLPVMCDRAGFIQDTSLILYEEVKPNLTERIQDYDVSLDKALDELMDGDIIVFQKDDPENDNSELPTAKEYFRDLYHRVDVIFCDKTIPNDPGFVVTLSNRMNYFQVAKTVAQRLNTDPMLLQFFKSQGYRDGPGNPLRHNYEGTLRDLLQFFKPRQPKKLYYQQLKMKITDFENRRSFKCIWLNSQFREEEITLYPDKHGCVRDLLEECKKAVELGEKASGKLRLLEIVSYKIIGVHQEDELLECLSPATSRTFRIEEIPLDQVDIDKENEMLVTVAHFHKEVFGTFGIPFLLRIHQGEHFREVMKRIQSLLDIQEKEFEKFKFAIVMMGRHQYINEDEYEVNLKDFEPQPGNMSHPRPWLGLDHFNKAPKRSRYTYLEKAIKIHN
Chain of UniProt P55210 (whole entry, looked up): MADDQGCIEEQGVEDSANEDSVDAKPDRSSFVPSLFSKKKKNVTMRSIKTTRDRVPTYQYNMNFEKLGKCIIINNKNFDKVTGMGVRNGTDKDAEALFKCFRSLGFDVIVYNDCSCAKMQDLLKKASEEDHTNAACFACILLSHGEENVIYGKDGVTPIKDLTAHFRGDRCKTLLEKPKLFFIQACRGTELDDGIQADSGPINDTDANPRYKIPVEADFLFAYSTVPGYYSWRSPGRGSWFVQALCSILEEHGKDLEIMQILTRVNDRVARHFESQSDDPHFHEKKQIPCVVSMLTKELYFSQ
Chain of UniProt P04756 (whole entry, unmodified, looked up): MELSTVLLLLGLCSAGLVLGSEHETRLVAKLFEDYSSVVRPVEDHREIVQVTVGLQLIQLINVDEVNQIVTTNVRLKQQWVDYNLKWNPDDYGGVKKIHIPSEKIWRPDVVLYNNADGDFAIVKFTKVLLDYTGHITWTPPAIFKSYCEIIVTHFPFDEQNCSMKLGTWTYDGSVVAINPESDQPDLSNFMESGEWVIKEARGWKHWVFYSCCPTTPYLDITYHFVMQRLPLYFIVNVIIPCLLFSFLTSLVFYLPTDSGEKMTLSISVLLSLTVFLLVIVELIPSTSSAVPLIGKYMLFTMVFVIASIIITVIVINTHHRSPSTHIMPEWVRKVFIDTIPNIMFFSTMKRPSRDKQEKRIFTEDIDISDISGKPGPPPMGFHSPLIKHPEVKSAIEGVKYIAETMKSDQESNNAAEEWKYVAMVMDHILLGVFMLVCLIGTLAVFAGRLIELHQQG
Chain of UniProt P34972 (whole entry, looked up): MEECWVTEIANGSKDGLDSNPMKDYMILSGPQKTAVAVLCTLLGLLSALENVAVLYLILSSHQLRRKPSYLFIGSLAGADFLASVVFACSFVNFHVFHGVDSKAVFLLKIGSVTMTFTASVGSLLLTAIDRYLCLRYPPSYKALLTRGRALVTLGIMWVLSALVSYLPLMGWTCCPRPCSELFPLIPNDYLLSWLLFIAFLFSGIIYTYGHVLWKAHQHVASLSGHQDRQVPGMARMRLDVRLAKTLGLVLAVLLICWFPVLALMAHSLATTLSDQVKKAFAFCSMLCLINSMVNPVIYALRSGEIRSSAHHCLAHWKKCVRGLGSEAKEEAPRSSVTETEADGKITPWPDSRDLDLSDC
Chain of UniProt Q00987 (whole entry, unmodified, looked up): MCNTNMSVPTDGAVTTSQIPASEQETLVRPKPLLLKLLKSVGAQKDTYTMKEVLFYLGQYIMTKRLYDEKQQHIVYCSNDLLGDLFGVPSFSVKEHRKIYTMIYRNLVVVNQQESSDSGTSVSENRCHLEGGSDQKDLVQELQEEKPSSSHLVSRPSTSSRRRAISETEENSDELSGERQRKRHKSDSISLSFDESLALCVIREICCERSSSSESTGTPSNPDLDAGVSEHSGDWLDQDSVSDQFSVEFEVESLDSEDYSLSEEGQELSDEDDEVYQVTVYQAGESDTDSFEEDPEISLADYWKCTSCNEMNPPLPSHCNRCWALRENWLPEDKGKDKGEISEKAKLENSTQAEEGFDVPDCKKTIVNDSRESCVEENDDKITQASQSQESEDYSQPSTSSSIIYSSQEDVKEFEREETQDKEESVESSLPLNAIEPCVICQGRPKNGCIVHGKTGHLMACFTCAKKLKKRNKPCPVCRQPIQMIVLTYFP
Chain of UniProt P20782 (whole entry, unmodified, looked up): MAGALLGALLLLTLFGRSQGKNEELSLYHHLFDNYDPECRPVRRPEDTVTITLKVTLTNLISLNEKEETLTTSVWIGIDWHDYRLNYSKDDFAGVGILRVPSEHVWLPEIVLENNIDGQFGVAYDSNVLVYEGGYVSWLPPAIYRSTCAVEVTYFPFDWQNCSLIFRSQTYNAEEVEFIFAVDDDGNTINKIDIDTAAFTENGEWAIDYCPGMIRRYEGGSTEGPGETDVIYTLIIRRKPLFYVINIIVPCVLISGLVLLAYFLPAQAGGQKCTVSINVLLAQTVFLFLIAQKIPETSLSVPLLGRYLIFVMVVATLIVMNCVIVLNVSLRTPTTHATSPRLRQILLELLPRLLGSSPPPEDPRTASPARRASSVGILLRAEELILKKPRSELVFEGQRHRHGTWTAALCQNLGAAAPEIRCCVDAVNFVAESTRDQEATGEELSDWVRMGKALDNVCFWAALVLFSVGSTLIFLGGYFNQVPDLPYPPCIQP
Chain of UniProt P02716 (whole entry, unmodified, looked up): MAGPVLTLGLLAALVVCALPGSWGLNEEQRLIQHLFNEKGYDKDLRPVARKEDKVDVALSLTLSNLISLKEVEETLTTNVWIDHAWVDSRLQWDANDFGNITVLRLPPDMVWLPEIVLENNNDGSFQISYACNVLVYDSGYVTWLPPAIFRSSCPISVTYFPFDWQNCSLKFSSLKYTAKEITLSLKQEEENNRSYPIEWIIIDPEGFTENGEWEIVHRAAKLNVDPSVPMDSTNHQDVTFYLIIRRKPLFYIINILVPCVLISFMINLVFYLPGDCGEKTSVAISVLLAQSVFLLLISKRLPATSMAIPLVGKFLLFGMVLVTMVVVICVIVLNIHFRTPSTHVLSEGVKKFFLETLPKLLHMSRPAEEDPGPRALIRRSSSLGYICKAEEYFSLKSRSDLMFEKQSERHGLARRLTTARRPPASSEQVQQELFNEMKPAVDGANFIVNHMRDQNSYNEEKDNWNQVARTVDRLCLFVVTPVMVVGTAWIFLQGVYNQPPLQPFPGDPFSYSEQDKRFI
Chain of UniProt Q9UKR0 (whole entry, looked up): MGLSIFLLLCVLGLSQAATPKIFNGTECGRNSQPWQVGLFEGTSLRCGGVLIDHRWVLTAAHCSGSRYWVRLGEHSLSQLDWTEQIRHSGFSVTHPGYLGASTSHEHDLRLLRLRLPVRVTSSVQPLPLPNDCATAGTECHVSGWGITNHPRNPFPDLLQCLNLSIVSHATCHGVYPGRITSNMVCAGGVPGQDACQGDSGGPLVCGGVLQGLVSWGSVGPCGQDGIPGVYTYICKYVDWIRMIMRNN
Chain of UniProt Q6UB35 (whole entry, looked up): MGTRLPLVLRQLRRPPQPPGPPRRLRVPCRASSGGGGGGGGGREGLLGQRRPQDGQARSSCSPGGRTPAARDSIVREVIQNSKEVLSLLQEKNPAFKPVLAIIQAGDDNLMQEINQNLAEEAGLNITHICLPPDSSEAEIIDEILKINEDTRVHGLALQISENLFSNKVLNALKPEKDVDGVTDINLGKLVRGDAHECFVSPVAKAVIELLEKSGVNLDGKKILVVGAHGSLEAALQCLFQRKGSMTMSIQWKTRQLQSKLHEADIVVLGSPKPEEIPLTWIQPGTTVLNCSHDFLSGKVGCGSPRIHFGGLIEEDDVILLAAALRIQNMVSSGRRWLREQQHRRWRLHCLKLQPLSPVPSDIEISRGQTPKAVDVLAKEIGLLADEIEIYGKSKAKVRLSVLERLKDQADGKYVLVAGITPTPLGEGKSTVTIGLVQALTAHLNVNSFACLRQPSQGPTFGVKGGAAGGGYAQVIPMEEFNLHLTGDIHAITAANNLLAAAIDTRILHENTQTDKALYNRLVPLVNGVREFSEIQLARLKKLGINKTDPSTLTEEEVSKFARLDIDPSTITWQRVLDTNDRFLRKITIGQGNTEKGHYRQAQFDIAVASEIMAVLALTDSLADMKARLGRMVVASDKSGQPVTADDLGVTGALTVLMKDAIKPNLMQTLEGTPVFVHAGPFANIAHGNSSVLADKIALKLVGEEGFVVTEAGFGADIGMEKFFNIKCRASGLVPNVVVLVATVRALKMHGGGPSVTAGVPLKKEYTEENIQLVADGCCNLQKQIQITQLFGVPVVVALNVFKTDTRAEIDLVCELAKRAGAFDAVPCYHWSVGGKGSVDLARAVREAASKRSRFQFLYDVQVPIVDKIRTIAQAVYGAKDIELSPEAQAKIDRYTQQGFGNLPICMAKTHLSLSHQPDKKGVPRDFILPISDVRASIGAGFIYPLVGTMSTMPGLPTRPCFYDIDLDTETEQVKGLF

SMILES | target | test | system | setting | how to read | measurement | value
COc1cc(/C=C/c2ccc(O)cc2)cc(OC)c1 | O-methyltransferase (Sorghum bicolor, UniProt A0A1B6PFV1) | biolayer interferometry | – | added: SFG+ | – | cooperativity factor σ | 1.24
C[C@](O)(c1ccccc1)c1cn(C[C@H](NC(=O)OCC2c3ccccc3-c3ccccc32)C(=O)O)nn1 | MDM2 (Homo sapiens, UniProt Q00987) | thermal stability, DSF | – | 30 µM | – | ΔTm | 2.5 °C
CC(=O)N[C@@H](CC(C)C)C(=O)N[C@@H](CCC(N)=O)C(=O)N[C@@H](CO)C(=O)N[C@@H](CC(=O)O)C(=O)COC(=O)c1c(C)cccc1C | CASP7 | enzyme activity, inhibitor | – | – | – | kinact/KI | 2000 M⁻¹ s⁻¹
C[C@](C(=O)NC1CCOCC1)(c1cncnc1)N(C(=O)[C@H](F)Cl)c1ccc(OC(F)(F)Cl)cc1 | Kallikrein-12 (Homo sapiens, UniProt Q9UKR0) | enzyme activity, inhibitor | – | 10 µM | – | remaining activity | 104%
O=C(O)Cc1cc2c(cc1C(=O)c1ccccc1I)OCO2 | Gria2 (Rattus norvegicus, UniProt P19491) | whole-cell patch clamp | HEK-293T | concentration not given, added: glutamate | – | deactivation time constant | 3.4 ± 0.3 ms
C[C@@H]1CN(c2cc(=O)n(C)c3ccc(C#N)nc23)[C@@H](C)CN1Cc1ccc(S(=O)(=O)n2cnc(C3CC3)n2)cc1 | DGKA (Homo sapiens, UniProt P23743) | DIA global proteomics | Jurkat | 5 µM, 6 h | baseline: DMSO | protein abundance ratio | 0.19
C[N+](C)(C)CCOC(N)=O | Chrnd/Chrna1/Chrne (Mus musculus, UniProt P02716+P04756+P20782, G173S/S470W) | ligand binding, agonist, single-channel kinetics | – | chain S | baseline: wild type over mutant | affinity ratio | 2
O=C1c2sc(-c3ccc(N4CCC(F)C4)nc3F)nc2CCN1c1cccnc1 (centres unmarked) | NMDA receptor | radioligand binding | – | 1 µM, added: antagonist radioligand | – | inhibition | 8%
CC1CCN(c2ccc(-c3n[nH]c(=O)c4cccnc34)cc2)CC1 | human kinase panel | binding, KINOMEscan | – | 10000 nM, %Ctrl below 35 | – | number of kinases hit | 2
CCCCCC=CC=C1C(=O)C=CC1CC=CCCCC(=O)O (centres unmarked) | MTHFD1L (Homo sapiens, UniProt Q6UB35) | competitive isoTOP-ABPP | Ramos soluble proteome | 100 µM, 60 min, added: iodoacetamide probe | baseline: DMSO over compound-treated, higher = stronger cysteine blockade | isoTOP-ABPP competition ratio | 4.3
CC[C@H](NC(=O)[C@H](CC(C)C)NC(C)=O)C(=O)N[C@@H](CCC1CCCCC1)C(=O)N[C@@H](CC(=O)O)C(=O)COC(=O)c1c(C)cccc1C | CASP7 | enzyme activity, inhibitor | – | – | – | kinact/KI | 11200 M⁻¹ s⁻¹
CCOC(=O)[C@](CC)(CCCSCCOCCOCCNC(=O)CCCCCN1C(=CC=CC=CC2=[N+](C)c3ccc4ccccc4c3C2(C)C)C(C)(C)c2c1ccc1ccccc21)NC(=O)c1ccc(C2CC2)c(Cc2ccc(F)cc2)n1.[Cl-] | CNR2 (Homo sapiens, UniProt P34972) | cAMP level | – | added: forskolin | baseline: CB1 over CB2 (human) | EC50 ratio | 5
NC(=O)c1cc(-c2ccc3c(c2)OCCO3)n(-c2ccccc2)n1 | Genome polyprotein, NS2B-NS3 protease (dengue virus type 2, UniProt P29990) | enzyme activity, fluorogenic AMC substrate | – | 50 µM | – | inhibition | 21%
N#CN1CC[C@H](C(=O)Nc2nc3c(s2)CN(C(=O)Cn2cc(CNC(=O)CCCC[C@@H]4SC[C@@H]5NC(=O)N[C@@H]54)nn2)CC3)C1 | USP7 (Homo sapiens, UniProt Q93009) | probe binding, affinity probe, neutravidin pull-down LC-MS/MS | HEK293T, cell lysate | 5 µM, 1 h, single replicate, unit not given | higher = more pulled down | iBAQ abundance | 1.59e+07 and 4.04e+06 and 1.2e+07
